Values quoted from earlier work as cited in several papers.
Lines come from different studies, so protocols differ. Values after ≈ are worked out from the molar mass of the structure shown.

SMILES	target or system	assay	system	setting	how to read	endpoint	value
CCCCSC[C@H]1CN(Cc2c[nH]c3c(N)ncnc23)C[C@@H]1O	Helicobacter pylori	growth				IC90	< 0.008 µg/mL
O=c1ccc2cccc(OCc3cn(-c4ccsc4)nn3)c2[nH]1	Bacillus cereus			concentration not given		inhibition zone	7 mm
CC(=O)O[C@H]1C2=C(C(=O)C(OC(=O)c3ccccc3)=C(C(C)C)C2=O)[C@@]2(C)CCCC(C)(C)[C@@H]2[C@@H]1OC(=O)c1ccccc1	HL-60	cell growth				GI50	≤ 5000 nM
NS(=O)(=O)c1ccc(CCN/C=C2\C(=O)Oc3ccccc3C2=O)cc1	Shigella flexneri			concentration not given		inhibition zone diameter	9 mm
NC(=O)c1c(F)ccc(OCc2nc3cc(Cl)cnc3s2)c1F	Staphylococcus aureus		Smith, mouse, infection	intravenous, single dose		ED50	10 mg/kg
C[C@@](CCc1ccc(-c2ccccc2)cc1)(C(=O)NO)S(C)(=O)=O	Enterobacter spp.					MIC90	4 µg/mL (≈ 11.5 µM)
Cc1ccc2nc(C)c(C(=O)NCc3ccc(C(F)(F)F)cc3)n2c1	Mycobacterium tuberculosis		mouse acute tuberculosis model	oral, 300 and 500 mg/kg		bacterial load reduction	2 log CFU
Cc1nc(N(C)C(=O)Cc2ccc(-c3ccccn3)cc2)sc1S(N)(=O)=O	herpes simplex virus 2	viral replication				EC50	16 nM
CSCC[C@H](NC(=O)[C@H](CCCNC(=N)N)NC(=O)[C@H](Cc1c[nH]c2ccccc12)NC(=O)[C@H](CCC(N)=O)NC(=O)[C@H](Cc1c[nH]c2ccccc12)NC(=O)[C@H](CCCNC(=N)N)NC(=O)[C@@H](N)CCCNC(=N)N)C(=O)N[C@@H](CCCCN)C(=O)N[C@@H](CCCCN)C(=O)N[C@@H](CC(C)C)C(=O)NCC(=O)NCCCC[C@H](NC(=O)CNC(=O)[C@H](CC(C)C)NC(=O)[C@H](CCCCN)NC(=O)[C@H](CCCCN)NC(=O)[C@H](CCSC)NC(=O)[C@H](CCCNC(=N)N)NC(=O)[C@H](Cc1c[nH]c2ccccc12)NC(=O)[C@H](CCC(N)=O)NC(=O)[C@H](Cc1c[nH]c2ccccc12)NC(=O)[C@H](CCCNC(=N)N)NC(=O)[C@@H](N)CCCNC(=N)N)C(=O)NCCCCCC(=O)N[C@@H](CSSC[C@H](NC(=O)CCCCCNC(=O)[C@H](CCCCNC(=O)CNC(=O)[C@H](CC(C)C)NC(=O)[C@H](CCCCN)NC(=O)[C@H](CCCCN)NC(=O)[C@H](CCSC)NC(=O)[C@H](CCCNC(=N)N)NC(=O)[C@H](Cc1c[nH]c2ccccc12)NC(=O)[C@H](CCC(N)=O)NC(=O)[C@H](Cc1c[nH]c2ccccc12)NC(=O)[C@H](CCCNC(=N)N)NC(=O)[C@@H](N)CCCNC(=N)N)NC(=O)CNC(=O)[C@H](CC(C)C)NC(=O)[C@H](CCCCN)NC(=O)[C@H](CCCCN)NC(=O)[C@H](CCSC)NC(=O)[C@H](CCCNC(=N)N)NC(=O)[C@H](Cc1c[nH]c2ccccc12)NC(=O)[C@H](CCC(N)=O)NC(=O)[C@H](Cc1c[nH]c2ccccc12)NC(=O)[C@H](CCCNC(=N)N)NC(=O)[C@@H](N)CCCNC(=N)N)C(N)=O)C(N)=O	Escherichia coli		ATCC 11775			MBC	15 µM (≈ 102 µg/mL)
Cc1ccccc1-c1cc(N2CCNCC2)ncc1N(C)C(=O)C(C)(C)c1cc(C(F)(F)F)cc(C(F)(F)F)c1			cancer patients, plasma	oral, dose not given, netupitant-palonosetron fixed combination, together with: etoposide 35-100 mg/m^2 IV		AUC(0-inf)	4200 ng·h/mL
CCOP(=O)(CCCn1cc(Cn2c(=O)n(C(=O)c3ccccc3)c(=O)c3ccccc32)nn1)OCC	human alphaherpesvirus 1	viral replication				EC50	17000 nM
CN1CCN(c2cc(-c3ccccc3CO)c(N(C)C(=O)C(C)(C)c3cc(C(F)(F)F)cc(C(F)(F)F)c3)cn2)CC1			healthy volunteers, plasma	oral, 300 mg, fed, fixed-dose combination, together with: palonosetron 0.5 mg		AUC(0-inf)	5750 ng·h/mL
O=C(Nc1ccccc1-c1cccc(F)c1)c1nccnc1C(F)(F)F	Blumeria graminis		barley			EC80	2 to 10 mg a.i./L
O=C(Nc1ccccc1)c1csc2c(C3CC3)c(Cc3cccc4ccccc34)cc(=O)n12	Chlamydia trachomatis		serovar L2	2.5 µM		progeny infectivity	decreased
CN[C@H](CC(C)C)C(=O)N[C@H]1C(=O)N[C@@H](CC(N)=O)C(=O)N[C@H]2C(=O)N[C@H]3C(=O)N[C@H](C(=O)N[C@H](C(=O)NCCCNC(=N)N)c4cc(O)cc(O)c4-c4cc3ccc4O)[C@H](O)c3ccc(c(Cl)c3)Oc3cc2cc(c3O[C@@H]2O[C@H](CO)[C@@H](O)[C@H](O)[C@H]2O[C@H]2C[C@](C)(N)[C@H](O)[C@H](C)O2)Oc2ccc(cc2Cl)[C@H]1O	Enterococcus		VanA vancomycin-resistant	concentration not given	baseline: vancomycin	activity improvement	≤ 64 fold
COc1ccccc1-c1ccc(CC(=O)N(C)c2nc(C)c(S(N)(=O)=O)s2)cc1	herpes simplex virus 1	viral replication				EC50	2 nM
Cc1cc(C)n(N)c(=O)c1C#N	Pseudomonas aeruginosa			concentration not given		inhibition zone diameter	21.4 mm
O=C(Nc1ccccc1-c1ccc(F)cc1F)c1nccnc1C(F)(F)F	Botrytis cinerea		cucumber			EC80	2 to 10 mg a.i./L
COc1ccc(NC2=C(O)C(=O)c3ccccc3C2=O)cc1	Plasmodium berghei		infected mice	dose not given, day 5	baseline: untreated	parasitemia inhibition	66.6%
C/C=C/CNC(=N)NCCCCCCCCN1CCCCCCCCNC(=N)NC1=O	Candida tropicalis					MIC50	1.25 µg/mL (≈ 2.87 µM)
CCC(=O)O[C@@H]1[C@@H](OC(C)=O)C2=C(C(=O)C(O)=C(C(C)C)C2=O)[C@@]2(C)CCCC(C)(C)[C@H]12	MCF7	cell growth				GI50	10000 to 30000 nM
CCN(CC)c1ccc2nc3c4ccccc4/c(=N/c4ccncc4)cc-3oc2c1	Plasmodium berghei		ANKA, mouse	oral, 3 × 30 mg/kg		mice cured	80%

SMILES	target or system	assay	system	setting	how to read	endpoint	value
Cc1cccc(C)c1NC1=C(O)C(=O)c2ccccc2C1=O	Plasmodium berghei		infected mice	dose not given, day 7	baseline: untreated	parasitemia inhibition	0%
Cc1ccc(/N=N/c2c(C)c(C(=O)Nc3ccccc3)c(N)n(-c3ccccc3)c2=O)cc1	Candida albicans					MIC	7.81 µg/mL (≈ 17.9 µM)
O=c1c2cc([N+](=O)[O-])ccc2n(CCO)n1Cc1ccccc1	Trypanosoma cruzi			concentration not given, epimastigotes		antiparasitic activity	active
Cc1ncccc1C(=O)Nc1cccc2c1C(C)CC2(C)C (stereo not shown)	Puccinia triticina		wheat			EC80	1 to 10 mg a.i./L
COCCOCCOCCOCCC(=O)NCc1cc(CNC(=O)CCOCCOCCOCCOC)cc(-c2cc3cc4nc(c(OC)c5[nH]c(cc6nc(cc2[nH]3)CC6(C)C)cc5-c2cc(CNC(=O)CCOCCOCCOCCOC)cc(CNC(=O)CCOCCOCCOCCOC)c2)CC4(C)C)c1			PBS	room temperature		Qy/B absorption intensity ratio	0.77
Cc1nc(C(C)C(=O)Nc2ccc(-c3ccccc3)cc2)sc1S(N)(=O)=O (stereo not shown)	herpes simplex virus 1	viral replication				EC50	50 nM
O=C(Nc1ccccc1-c1ccc(F)cc1)c1nccnc1C(F)(F)F	Blumeria graminis		barley			EC80	2 to 10 mg a.i./L
C[C@@](CCn1ccc(-c2ccccc2)cc1=O)(C(=O)NO)S(C)(=O)=O	Pseudomonas aeruginosa			138 clinical isolates		MIC90	2 µg/mL (≈ 5.49 µM)
O=C(Nc1ccccc1-c1ccc(C(F)(F)F)c(F)c1)c1nccnc1C(F)(F)F	Botrytis cinerea		cucumber			EC80	5 to 20 mg a.i./L
CSc1nn(CC(=O)Nc2ccc(F)c(F)c2)c(N)c1-c1nc(-c2ccc3c(c2)OCO3)no1	Klebsiella pneumoniae	PubChem screen		concentration not given		activity	inactive
O=C(Nc1ccccc1-c1ccc(Cl)c(F)c1)c1nccnc1C(F)(F)F	Puccinia triticina		wheat			EC80	2 to 10 mg a.i./L
N=C(N)NCCC[C@H](NC(=O)[C@H](Cc1c[nH]c2ccccc12)NC(=O)[C@H](CCC(N)=O)NC(=O)[C@H](Cc1c[nH]c2ccccc12)NC(=O)[C@H](CCCNC(=N)N)NC(=O)[C@@H](N)CCCNC(=N)N)C(=O)NCCCC[C@H](NC(=O)[C@H](CCCNC(=N)N)NC(=O)[C@H](Cc1c[nH]c2ccccc12)NC(=O)[C@H](CCC(N)=O)NC(=O)[C@H](Cc1c[nH]c2ccccc12)NC(=O)[C@H](CCCNC(=N)N)NC(=O)[C@@H](N)CCCNC(=N)N)C(=O)NCCCCCC(=O)N[C@@H](CSSC[C@H](NC(=O)CCCCCNC(=O)[C@H](CCCCNC(=O)[C@H](CCCNC(=N)N)NC(=O)[C@H](Cc1c[nH]c2ccccc12)NC(=O)[C@H](CCC(N)=O)NC(=O)[C@H](Cc1c[nH]c2ccccc12)NC(=O)[C@H](CCCNC(=N)N)NC(=O)[C@@H](N)CCCNC(=N)N)NC(=O)[C@H](CCCNC(=N)N)NC(=O)[C@H](Cc1c[nH]c2ccccc12)NC(=O)[C@H](CCC(N)=O)NC(=O)[C@H](Cc1c[nH]c2ccccc12)NC(=O)[C@H](CCCNC(=N)N)NC(=O)[C@@H](N)CCCNC(=N)N)C(N)=O)C(N)=O	Escherichia coli		ATCC 25922			MBC	22 µM (≈ 101 µg/mL)
C=CC(OC1OC(C(=O)O)C(O)C(O)C1O)c1ccc(OC)cc1 (stereo not shown)		glucuronidation, substrate	male rat liver			Km	137 µM
COc1cc([C@@H]2c3cc4c(cc3[C@@H](C=C(C)C)[C@H]3COC(=O)[C@@H]23)OCO4)cc(OC)c1OC	Leishmania infantum	tubulin polymerization inhibition		concentration not given		antiparasitic activity	active
CCCCCCCCCCCCCCCCOCCOP1(=O)COC(Cn2cnc(N)nc2=O)CO1 (stereo not shown)	varicella zoster virus				baseline: cytotoxicity over antiviral activity	selectivity index	≥ 5800
CC1CC(C)(C)c2cccc(NC(=O)c3nccnc3C(F)(F)F)c21 (stereo not shown)	Blumeria graminis		barley			EC80	1 to 10 mg a.i./L
CNS(=O)(=O)c1sc(N(C)C(=O)Cc2ccc(-c3ccccc3)cc2)nc1C	herpes simplex virus 1	viral replication				EC50	0.5 nM
O=C1CC(c2cccc(O)c2)Oc2ccc(O)cc21 (stereo not shown)	Leishmania infantum			50 µM		inhibition	31%
COC1=CC(c2ccc[nH]2)=NC1=Cc1[nH]c(Cc2ccc(Cl)cc2)cc1Cc1ccc(Cl)cc1	Plasmodium yoelii		multidrug-resistant, mouse	25 mg/kg/day		parasite reduction	100%
O=C(Nc1ccccc1-c1ccc(Cl)c(Cl)c1)c1nccnc1C(F)(F)F	Botrytis cinerea		cucumber			EC80	2 to 10 mg a.i./L
Cc1nc(N(C)C(=O)Cc2ccc(-c3cccnc3)cc2)sc1S(N)(=O)=O	herpes simplex virus 1	viral replication				EC50	5 nM

Excerpt of the above:
SMILES	target or system	assay	system	setting	how to read	endpoint	value
O=C(Nc1ccccc1-c1ccc(F)cc1)c1nccnc1C(F)(F)F	Blumeria graminis		barley			EC80	2 to 10 mg a.i./L
C[C@@](CCn1ccc(-c2ccccc2)cc1=O)(C(=O)NO)S(C)(=O)=O	Pseudomonas aeruginosa			138 clinical isolates		MIC90	2 µg/mL (≈ 5.49 µM)
O=C(Nc1ccccc1-c1ccc(C(F)(F)F)c(F)c1)c1nccnc1C(F)(F)F	Botrytis cinerea		cucumber			EC80	5 to 20 mg a.i./L
CSc1nn(CC(=O)Nc2ccc(F)c(F)c2)c(N)c1-c1nc(-c2ccc3c(c2)OCO3)no1	Klebsiella pneumoniae	PubChem screen		concentration not given		activity	inactive
O=C(Nc1ccccc1-c1ccc(Cl)c(F)c1)c1nccnc1C(F)(F)F	Puccinia triticina		wheat			EC80	2 to 10 mg a.i./L
N=C(N)NCCC[C@H](NC(=O)[C@H](Cc1c[nH]c2ccccc12)NC(=O)[C@H](CCC(N)=O)NC(=O)[C@H](Cc1c[nH]c2ccccc12)NC(=O)[C@H](CCCNC(=N)N)NC(=O)[C@@H](N)CCCNC(=N)N)C(=O)NCCCC[C@H](NC(=O)[C@H](CCCNC(=N)N)NC(=O)[C@H](Cc1c[nH]c2ccccc12)NC(=O)[C@H](CCC(N)=O)NC(=O)[C@H](Cc1c[nH]c2ccccc12)NC(=O)[C@H](CCCNC(=N)N)NC(=O)[C@@H](N)CCCNC(=N)N)C(=O)NCCCCCC(=O)N[C@@H](CSSC[C@H](NC(=O)CCCCCNC(=O)[C@H](CCCCNC(=O)[C@H](CCCNC(=N)N)NC(=O)[C@H](Cc1c[nH]c2ccccc12)NC(=O)[C@H](CCC(N)=O)NC(=O)[C@H](Cc1c[nH]c2ccccc12)NC(=O)[C@H](CCCNC(=N)N)NC(=O)[C@@H](N)CCCNC(=N)N)NC(=O)[C@H](CCCNC(=N)N)NC(=O)[C@H](Cc1c[nH]c2ccccc12)NC(=O)[C@H](CCC(N)=O)NC(=O)[C@H](Cc1c[nH]c2ccccc12)NC(=O)[C@H](CCCNC(=N)N)NC(=O)[C@@H](N)CCCNC(=N)N)C(N)=O)C(N)=O	Escherichia coli		ATCC 25922			MBC	22 µM (≈ 101 µg/mL)
